Published values of several laboratories.
Each numbered part is a random draw from the data of one study; scales do not carry over between parts. Changes are numbered by the printed parent chain.

Set 1 — technique: RNAcompete; molecule type: RNA; sample: in vitro; tested at: 20 nM; notes: 7-mer, probes averaged, single round; baseline: mean of 7-mers; direction: higher = stronger binding; endpoint: 7-mer Z-score
Target: PABPC1L2, full length, GST fusion (mouse, UniProt A0ABA7IW68)
GCUUCGC: -0.333
CCAUUUU: -0.188
ACGGUCC: -0.202
ACUGAAA: 0.602
GUAUAUC: -0.188
ACAGCCC: -0.184
UCUGACU: -0.291
GAGUGCG: -0.166

Set 2 — technique: protein-binding microarray; molecule type: double-stranded DNA, one strand shown; sample: in vitro; tested at: 2540 nM top; notes: 60-bp whole probe; added: salmon DNA 0.4 mg/ml; baseline: random background probes; direction: higher = stronger binding; endpoint: fitted relative affinity; all sequences stand within: GCCTAGCAC … GTCTTGATTCGCTTGACGCTGCTG
Target: Interferon regulatory factor 3, full length, phosphomimetic (IRF3, Homo sapiens, UniProt Q14653, residues 1-427, S386D/S396D/S398D/S402D/T404D/S405D)
Target sequence (chain): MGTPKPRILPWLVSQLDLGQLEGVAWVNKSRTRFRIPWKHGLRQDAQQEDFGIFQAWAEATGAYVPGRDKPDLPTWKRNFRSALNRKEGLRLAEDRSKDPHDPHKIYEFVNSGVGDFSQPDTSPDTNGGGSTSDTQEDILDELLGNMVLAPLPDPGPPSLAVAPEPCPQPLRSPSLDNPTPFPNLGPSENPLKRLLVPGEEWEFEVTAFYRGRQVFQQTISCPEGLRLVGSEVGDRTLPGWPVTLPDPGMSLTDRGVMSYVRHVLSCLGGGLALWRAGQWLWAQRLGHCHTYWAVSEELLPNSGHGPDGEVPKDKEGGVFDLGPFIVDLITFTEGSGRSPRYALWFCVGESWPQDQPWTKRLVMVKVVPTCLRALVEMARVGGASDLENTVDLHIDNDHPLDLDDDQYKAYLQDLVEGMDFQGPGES
TAACCTTGAACTTTGGCCTCGTGCTAG: -0.624 z-score
TTCTTTATGTACTCTCTCCATGTGCTA: 0.825 z-score
ATCCCATTAAATTTTAATAAGTGCTAG: 0.925 z-score
CTAGGTATCGACTTTCGGTTAGTGCTA: 2.09 z-score
GGCGATATCGGGACTGGAGACGTGCTA: -0.0737 z-score
TTTGGTATCCTTATCCTTTAGTGCTAG: 6 z-score
GACGGCATCGGACTGGGGACGTGCTAG: -0.993 z-score
TCACAATTCTTTTTATGACTGTGCTAG: 1.27 z-score

Other studies, line by line
P1: PafA, mature enzyme, eGFP fusion (Elizabethkingia meningoseptica, UniProt Q9KJX5); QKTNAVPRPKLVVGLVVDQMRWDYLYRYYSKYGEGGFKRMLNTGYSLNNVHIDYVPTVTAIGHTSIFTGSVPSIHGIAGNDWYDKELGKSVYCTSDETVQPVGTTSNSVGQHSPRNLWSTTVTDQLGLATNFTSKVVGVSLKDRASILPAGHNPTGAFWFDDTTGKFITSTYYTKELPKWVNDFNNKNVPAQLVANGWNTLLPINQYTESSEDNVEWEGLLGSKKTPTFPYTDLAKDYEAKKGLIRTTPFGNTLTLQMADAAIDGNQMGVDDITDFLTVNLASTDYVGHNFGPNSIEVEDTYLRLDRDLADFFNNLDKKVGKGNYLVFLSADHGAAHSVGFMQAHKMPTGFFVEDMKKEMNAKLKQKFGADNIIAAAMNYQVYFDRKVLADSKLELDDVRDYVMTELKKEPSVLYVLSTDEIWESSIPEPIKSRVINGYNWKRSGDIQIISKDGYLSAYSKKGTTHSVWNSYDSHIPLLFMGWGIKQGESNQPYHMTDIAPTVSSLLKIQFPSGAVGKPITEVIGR
WBP4 (Homo sapiens, UniProt O75554)  cross-linked residues (HSP90AA1 (Homo sapiens, UniProt P07900); cross-linking MS; cell fractions; added: DSSO): S51 to K513
P1 S433G  oxyanion analog dissociation constant (tungstate, free oxyanion; microfluidic competitive inhibition; in vitro, cell-free expressed; not given, derived from inhibition constants, unchanged parent 2230 nM; lower = stronger binding): 1.73 µM
ATP5PB (Homo sapiens, UniProt P24539)  interaction screen (ATP5PO (Homo sapiens, UniProt P48047); cross-linking MS; hits only): cross-linked
AP2A1 (Homo sapiens, UniProt O95782)  cross-linked residues (HNRNPA2B1 (Homo sapiens, UniProt P22626); cross-linking MS; cell fractions; added: DSSO): S567 to K112
SRSF3 (Homo sapiens, UniProt P84103)  cross-linked residues (PRKD2 (Homo sapiens, UniProt Q9BZL6); cross-linking MS; cell fractions; added: DSSO): K23 to T397

Excerpt of the above (set 1):
ACUGAAA: 0.602
GAGUGCG: -0.166
GUAUAUC: -0.188
